Measurements of several laboratories.
A part holds a random share of what one study measured. Changes are numbered by the printed parent chain.

Set 1
Target: Hepatocyte nuclear factor 3-alpha (Foxa1, Mus musculus, UniProt P35582, residues 1-468, full length assumed)
Method: EMSA with sequencing
Molecule type: double-stranded DNA, one strand shown
Medium: in vitro
Tested at: 10 and 20 nM
Notes: whole designed probe, mean of two concentrations, ends assumed
Baseline: negative control set to 0
Direction: higher = stronger binding
Construct (chain): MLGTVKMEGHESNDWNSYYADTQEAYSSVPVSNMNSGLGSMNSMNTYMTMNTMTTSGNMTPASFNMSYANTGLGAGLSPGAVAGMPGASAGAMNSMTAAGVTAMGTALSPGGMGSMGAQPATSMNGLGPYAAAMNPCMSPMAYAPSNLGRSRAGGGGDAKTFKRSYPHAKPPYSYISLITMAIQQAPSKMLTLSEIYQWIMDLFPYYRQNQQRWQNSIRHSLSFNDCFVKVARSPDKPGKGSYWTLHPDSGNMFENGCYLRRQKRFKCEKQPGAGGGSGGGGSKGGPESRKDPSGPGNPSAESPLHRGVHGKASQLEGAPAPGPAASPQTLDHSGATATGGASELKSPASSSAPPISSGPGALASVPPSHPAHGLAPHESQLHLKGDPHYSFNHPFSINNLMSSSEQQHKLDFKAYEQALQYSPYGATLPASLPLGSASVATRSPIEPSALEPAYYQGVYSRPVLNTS
| Oligonucleotide | normalised bound fraction [ratio] |
| --- | --- |
| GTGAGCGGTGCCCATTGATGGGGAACGGGTCCCGGGCGGCGGCAGGAATGCAGGAATGCGCACAGGCTGTGGGCGGCCAGGAGGGAGTCCCGGGGCGGAAGTGCGCCTGCCCCAGTCTTTGTGTACCCTGTCCAACACCTCCCCCCGCCAGCGCGGAAGGCCGGGCTACCTGCGCGCCTGGCAGCGCCTGGCAGCCGGCTGGGTGGGGCGCAGGGGAGCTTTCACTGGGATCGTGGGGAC | 0.0164 |
| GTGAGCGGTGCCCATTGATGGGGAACATGTGCTAAAAATACAAGACTTGCTTACGCAGAGAGCCGGGAGCTATGTTCCAGTGAGGGTGGAAACAAAAGCCTCAGTATAAGACTGTCAGGTGTTTACACTTAAGGGTGTGGTGCTCATGTGGCAACACGAGGTTGCTGGACTCCACATGCTGAGGCTCAAAGTAGAAATCACTGATCTTATGTCACATATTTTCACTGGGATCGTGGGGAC | 0.383 |
| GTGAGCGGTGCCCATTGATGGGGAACATCTTCCCCCTCTTCCTTGCCCCACCAGCTCACCTTCCCGGGTTATTTGCACAAAGGAAAATAAATAAAGCCGGCATTCGTTAACCCTCTTCACGCGCATACTGCTGTTTGCTCTGGATCTAACATGGTCCTTTGGCGAGGCGTGGCTCCGGGAGAGCAAAGCACCGTGTCAGGGCCATGATCCGGGGTGGCCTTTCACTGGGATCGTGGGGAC | 0.371 |
| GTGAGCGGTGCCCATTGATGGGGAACTCATGTAGACCCCGATGGACTAGCCAGAGAGCATCACAATGGGCCCCCAGAGTTCTCTCAGTGGCCAGTCTATGGACCTTCTTGATGGTCTGTGTTTACATTGTCATGATGCCATATGGAAATTTAATGGAACACATTCACAATTTATGCCGCTAAACAAGAAACGCCATTATCCTGTTAGTCTTTAAAACCATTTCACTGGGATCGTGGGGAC | 0.372 |
| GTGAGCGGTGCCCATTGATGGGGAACTTTAGCTGTTTGAATATAATATGTTTACGTTTACTCCTCTTCTTCCTCCTGCCTCCCTTTCTCTTCCTTCTTTCTCTTATTTTTCTTCTATCCTGTTTGCTCTTCTTAGGTTAATGAATGTAGTTTGGTGTCATTATTTTTAAAAACTCTGAGCAACCATCCTTACAAATACTGTTTCTGCCCTGTTCTCTCCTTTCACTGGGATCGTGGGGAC | 0.16 |

Set 2
Target: PABPC1L2, full length, GST fusion (mouse, UniProt A0ABA7IW68)
Method: RNAcompete
Molecule type: RNA
Medium: in vitro
Tested at: 20 nM
Notes: 7-mer, probes averaged, single round
Baseline: mean of 7-mers
Direction: higher = stronger binding
Construct (chain): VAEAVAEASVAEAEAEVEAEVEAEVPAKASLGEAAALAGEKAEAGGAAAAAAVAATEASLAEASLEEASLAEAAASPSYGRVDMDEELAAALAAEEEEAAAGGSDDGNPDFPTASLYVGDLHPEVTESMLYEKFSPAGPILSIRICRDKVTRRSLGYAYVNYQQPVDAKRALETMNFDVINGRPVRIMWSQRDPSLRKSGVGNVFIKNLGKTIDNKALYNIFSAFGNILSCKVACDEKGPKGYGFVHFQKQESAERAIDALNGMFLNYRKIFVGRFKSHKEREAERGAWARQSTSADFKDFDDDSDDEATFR
| Oligonucleotide | 7-mer Z-score |
| --- | --- |
| ACCGUAG | -0.315 |
| UGUAGUA | -0.208 |
| CUAUGCC | -0.389 |
| UAACUAG | -0.0681 |
| GAAGCUG | -0.00289 |
| UGACCUA | -0.121 |
| AACCGCA | 0.0678 |
| GCAAAGC | -0.121 |

Set 3
Target: ABI1, truncated, D143A, DHFR fusion (Arabidopsis thaliana)
Method: DHFR PCA, deep sequencing
Medium: yeast
Notes: methotrexate growth selection, single substitutions
With: (+)-ABA 0.0091 µM
Baseline: wild-type fitted maximum
Direction: higher = stronger binding
Parent: PYL1, truncated, DHFR fusion (Arabidopsis thaliana); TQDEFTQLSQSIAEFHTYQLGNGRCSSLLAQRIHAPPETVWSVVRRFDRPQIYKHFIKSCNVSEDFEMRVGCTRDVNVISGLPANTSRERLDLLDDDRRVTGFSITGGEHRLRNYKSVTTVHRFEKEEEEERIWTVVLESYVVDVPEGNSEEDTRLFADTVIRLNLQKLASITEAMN
| Variant | relative binding score |
| --- | --- |
| D144R | -2.27% |
| G108F | -9.48% |
| E151Y | 9.83% |
| Y18R | -0.452% |
| T73P | -0.169% |
| R88A | 5.17% |
| R46Y | -11.4% |
| T135I | -2.89% |

Set 4
Target: CCNA1, cyclin fold, Cln2 fusion (human)
Method: yeast growth competition, sequencing
Medium: yeast
Notes: weak parent motif
Baseline: not given
Direction: higher = stronger binding
Parent: viral docking peptide; KGVKRKLFAEDSS
| Variant | normalised enrichment score |
| --- | --- |
| KGVYRKLFAEDSS [K4Y] | 0.00362 |
| KGVKRKLFAETSS [D11T] | 0.841 |
| KGVKKKLFAEDSS [R5K] | 0.679 |
| KCVKRKLFAEDSS [G2C] | 1.23 |
| KGAKRKLFAEDSS [V3A] | 0.967 |
| KLVKRKLFAEDSS [G2L] | 0.799 |
| KGFKRKLFAEDSS [V3F] | 0.522 |
| KGVKRKLFAEDGS [S12G] | 0.878 |
| KGVKRKLFAEDES [S12E] | 1.44 |
| KGVKRKLFAYDSS [E10Y] | 0.215 |
| KGVKRKLFAEDTS [S12T] | 1.59 |
| KGVKRKLWAEDSS [F8W] | 0.0358 |
| KGVKRKLCAEDSS [F8C] | 0.507 |
| KGVKRKLFAEGSS [D11G] | 1.38 |
| KGVKRKLFAEDWS [S12W] | 0.877 |
| KGVKRKLFAEYSS [D11Y] | 0.873 |
| KNVKRKLFAEDSS [G2N] | 1.44 |

Single results of other studies
| Molecule | target | effect on | molecule type | tested at | quantity | result |
| --- | --- | --- | --- | --- | --- | --- |
| YLAENTFVV | HLA class I histocompatibility antigen, C alpha chain, allele C*04:01 (Homo sapiens, UniProt P10321) | peptide-MHC binding | peptide | concentration not given | binding | inactive |

A few entries again (set 4):
| Variant | normalised enrichment score |
| --- | --- |
| KGVKKKLFAEDSS [R5K] | 0.679 |
| KGVKRKLFAEDWS [S12W] | 0.877 |
| KNVKRKLFAEDSS [G2N] | 1.44 |
| KGVKRKLFAYDSS [E10Y] | 0.215 |
| KGVKRKLFAEDTS [S12T] | 1.59 |
| KCVKRKLFAEDSS [G2C] | 1.23 |
| KGFKRKLFAEDSS [V3F] | 0.522 |
